Measured values gathered from unrelated publications.
Protocols differ between the studies behind these lines. Values joined by “and” are separate records of one study, mostly repeats; a detail may differ. Numbers after ± are the reported error.
FPR1: fMet-Leu-Phe receptor (FPR1, Homo sapiens, UniProt P21462)
C3AR1: C3a anaphylatoxin chemotactic receptor (C3AR1, Homo sapiens, UniProt Q16581)
Sequence of UniProt Q16581 (whole entry, looked up): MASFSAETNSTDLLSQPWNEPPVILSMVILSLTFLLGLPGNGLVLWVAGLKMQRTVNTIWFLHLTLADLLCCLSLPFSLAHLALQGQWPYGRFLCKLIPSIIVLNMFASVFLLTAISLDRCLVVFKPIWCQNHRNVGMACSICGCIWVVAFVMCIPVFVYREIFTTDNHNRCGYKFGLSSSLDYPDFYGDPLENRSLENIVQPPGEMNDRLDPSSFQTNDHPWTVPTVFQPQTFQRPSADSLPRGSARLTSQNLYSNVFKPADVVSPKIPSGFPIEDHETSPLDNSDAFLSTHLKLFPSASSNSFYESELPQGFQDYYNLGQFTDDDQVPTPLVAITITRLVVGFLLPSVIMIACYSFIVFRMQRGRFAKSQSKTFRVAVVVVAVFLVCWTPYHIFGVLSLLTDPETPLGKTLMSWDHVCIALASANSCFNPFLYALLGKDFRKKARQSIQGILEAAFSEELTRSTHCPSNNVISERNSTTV
ESR2: Estrogen receptor beta (ESR2, Homo sapiens, UniProt Q92731)
Sequence of UniProt Q92731 (whole entry, looked up): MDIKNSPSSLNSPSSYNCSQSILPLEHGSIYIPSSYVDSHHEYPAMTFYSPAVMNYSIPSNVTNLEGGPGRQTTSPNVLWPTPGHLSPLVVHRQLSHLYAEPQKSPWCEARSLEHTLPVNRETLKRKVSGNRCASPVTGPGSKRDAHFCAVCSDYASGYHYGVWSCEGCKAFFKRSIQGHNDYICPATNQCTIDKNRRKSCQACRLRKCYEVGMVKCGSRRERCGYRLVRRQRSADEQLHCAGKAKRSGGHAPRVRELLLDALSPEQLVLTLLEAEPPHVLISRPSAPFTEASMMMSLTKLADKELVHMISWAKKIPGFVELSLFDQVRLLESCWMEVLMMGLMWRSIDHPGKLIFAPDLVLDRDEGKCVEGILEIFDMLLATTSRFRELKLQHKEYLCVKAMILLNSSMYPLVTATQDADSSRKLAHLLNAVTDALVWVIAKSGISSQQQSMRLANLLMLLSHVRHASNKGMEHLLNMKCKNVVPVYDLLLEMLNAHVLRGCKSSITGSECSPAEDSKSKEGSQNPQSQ
ESR1: Estrogen receptor (ESR1, Homo sapiens, UniProt P03372)
Sequence of UniProt P03372 (whole entry, looked up): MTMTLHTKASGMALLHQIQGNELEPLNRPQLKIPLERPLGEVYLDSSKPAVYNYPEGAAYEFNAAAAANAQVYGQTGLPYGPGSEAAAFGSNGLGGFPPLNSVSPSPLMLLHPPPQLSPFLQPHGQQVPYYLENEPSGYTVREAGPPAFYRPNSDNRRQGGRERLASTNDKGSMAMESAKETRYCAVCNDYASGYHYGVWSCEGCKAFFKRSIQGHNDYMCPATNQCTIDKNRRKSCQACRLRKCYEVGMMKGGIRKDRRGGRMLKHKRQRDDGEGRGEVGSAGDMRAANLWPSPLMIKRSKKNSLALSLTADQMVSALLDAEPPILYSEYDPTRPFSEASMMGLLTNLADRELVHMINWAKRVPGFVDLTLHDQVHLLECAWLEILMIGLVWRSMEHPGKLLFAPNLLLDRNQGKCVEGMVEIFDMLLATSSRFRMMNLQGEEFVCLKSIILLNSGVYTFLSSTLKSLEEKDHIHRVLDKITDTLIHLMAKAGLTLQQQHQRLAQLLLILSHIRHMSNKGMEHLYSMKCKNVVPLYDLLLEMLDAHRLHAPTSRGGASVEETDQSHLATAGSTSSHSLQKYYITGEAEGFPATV
ADORA1: Adenosine receptor A1 (ADORA1, Homo sapiens, UniProt P30542)
Sequence of UniProt P30542 (whole entry, looked up): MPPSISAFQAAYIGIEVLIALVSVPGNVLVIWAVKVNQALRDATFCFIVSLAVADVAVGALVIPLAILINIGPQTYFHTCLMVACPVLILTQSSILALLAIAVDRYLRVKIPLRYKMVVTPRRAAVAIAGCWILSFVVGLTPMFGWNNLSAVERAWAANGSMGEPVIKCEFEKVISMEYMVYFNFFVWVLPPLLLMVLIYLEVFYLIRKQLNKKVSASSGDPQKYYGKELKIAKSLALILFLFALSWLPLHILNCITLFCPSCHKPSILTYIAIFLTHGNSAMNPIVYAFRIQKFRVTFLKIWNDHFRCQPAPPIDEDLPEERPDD
Sequence of UniProt O60894 (whole entry, looked up): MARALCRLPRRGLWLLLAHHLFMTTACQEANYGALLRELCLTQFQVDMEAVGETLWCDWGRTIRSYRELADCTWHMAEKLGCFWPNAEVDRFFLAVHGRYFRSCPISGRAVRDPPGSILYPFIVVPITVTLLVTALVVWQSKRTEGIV
Sequence of UniProt P41968 (whole entry, looked up): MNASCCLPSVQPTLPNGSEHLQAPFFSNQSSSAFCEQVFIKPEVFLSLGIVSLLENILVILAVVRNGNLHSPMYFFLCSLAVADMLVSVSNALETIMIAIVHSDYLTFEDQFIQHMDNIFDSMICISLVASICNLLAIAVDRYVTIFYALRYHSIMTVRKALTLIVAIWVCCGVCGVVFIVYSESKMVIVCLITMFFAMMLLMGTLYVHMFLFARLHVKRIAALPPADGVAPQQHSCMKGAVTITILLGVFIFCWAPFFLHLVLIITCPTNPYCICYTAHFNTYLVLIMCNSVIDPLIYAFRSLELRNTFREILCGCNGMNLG
Sequence of UniProt Q8BZP8 (whole entry, looked up): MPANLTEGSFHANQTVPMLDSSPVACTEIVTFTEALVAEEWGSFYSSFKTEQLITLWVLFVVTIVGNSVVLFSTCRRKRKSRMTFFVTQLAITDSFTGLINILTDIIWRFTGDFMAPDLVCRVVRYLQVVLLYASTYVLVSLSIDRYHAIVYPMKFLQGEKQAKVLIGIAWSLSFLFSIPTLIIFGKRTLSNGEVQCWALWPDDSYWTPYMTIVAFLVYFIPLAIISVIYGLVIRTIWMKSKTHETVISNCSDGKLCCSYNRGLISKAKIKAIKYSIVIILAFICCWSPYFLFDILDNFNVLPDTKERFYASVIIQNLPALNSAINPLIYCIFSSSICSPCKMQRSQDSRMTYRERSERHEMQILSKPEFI
Sequence of UniProt Q16602 (whole entry, looked up): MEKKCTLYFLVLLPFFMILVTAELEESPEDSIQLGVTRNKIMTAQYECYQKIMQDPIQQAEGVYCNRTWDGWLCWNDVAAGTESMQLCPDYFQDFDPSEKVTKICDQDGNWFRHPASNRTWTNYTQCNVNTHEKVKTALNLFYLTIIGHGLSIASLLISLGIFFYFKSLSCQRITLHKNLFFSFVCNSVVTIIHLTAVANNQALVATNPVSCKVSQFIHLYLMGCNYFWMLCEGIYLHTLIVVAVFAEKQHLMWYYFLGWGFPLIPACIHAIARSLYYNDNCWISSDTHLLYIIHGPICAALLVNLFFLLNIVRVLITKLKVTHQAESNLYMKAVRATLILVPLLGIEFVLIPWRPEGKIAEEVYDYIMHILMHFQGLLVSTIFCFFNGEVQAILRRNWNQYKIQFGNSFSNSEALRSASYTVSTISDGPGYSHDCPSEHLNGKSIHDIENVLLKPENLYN
Sequence of UniProt Q13131 (whole entry, looked up): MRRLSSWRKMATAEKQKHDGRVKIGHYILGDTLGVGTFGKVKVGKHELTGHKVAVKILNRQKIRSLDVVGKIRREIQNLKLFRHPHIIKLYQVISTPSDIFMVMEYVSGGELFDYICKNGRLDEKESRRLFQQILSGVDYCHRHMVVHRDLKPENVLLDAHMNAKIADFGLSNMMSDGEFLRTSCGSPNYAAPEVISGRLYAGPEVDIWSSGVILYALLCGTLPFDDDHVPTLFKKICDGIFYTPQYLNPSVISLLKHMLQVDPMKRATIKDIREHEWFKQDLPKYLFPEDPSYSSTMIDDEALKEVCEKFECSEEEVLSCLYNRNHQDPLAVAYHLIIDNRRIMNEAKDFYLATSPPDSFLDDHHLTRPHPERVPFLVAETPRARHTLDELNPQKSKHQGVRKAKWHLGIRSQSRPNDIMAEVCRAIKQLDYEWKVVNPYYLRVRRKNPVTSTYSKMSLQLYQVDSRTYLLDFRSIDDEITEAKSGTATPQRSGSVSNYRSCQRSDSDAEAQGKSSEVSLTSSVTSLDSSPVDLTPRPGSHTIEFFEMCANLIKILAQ
Sequence of UniProt Q16445 (whole entry, looked up): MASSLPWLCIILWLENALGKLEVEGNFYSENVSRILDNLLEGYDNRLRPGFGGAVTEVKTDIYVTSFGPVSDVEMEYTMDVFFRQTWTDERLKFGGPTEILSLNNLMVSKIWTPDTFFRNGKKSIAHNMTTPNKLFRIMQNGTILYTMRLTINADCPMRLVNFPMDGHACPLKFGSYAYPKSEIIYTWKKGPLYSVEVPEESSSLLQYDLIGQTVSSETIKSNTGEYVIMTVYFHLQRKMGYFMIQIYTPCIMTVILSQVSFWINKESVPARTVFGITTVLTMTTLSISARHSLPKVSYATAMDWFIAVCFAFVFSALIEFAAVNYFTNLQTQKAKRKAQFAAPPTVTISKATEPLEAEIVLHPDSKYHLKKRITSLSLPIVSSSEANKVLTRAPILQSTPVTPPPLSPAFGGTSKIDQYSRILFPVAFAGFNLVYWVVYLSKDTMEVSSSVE
Sequence of UniProt Q9Y478 (whole entry, looked up): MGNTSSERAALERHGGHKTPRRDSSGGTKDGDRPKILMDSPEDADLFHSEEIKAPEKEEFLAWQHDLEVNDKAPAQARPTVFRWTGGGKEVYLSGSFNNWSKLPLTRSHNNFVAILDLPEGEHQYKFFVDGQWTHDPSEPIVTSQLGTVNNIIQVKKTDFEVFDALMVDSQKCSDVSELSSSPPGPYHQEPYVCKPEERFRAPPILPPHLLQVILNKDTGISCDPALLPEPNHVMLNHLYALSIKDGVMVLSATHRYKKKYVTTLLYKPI
Sequence of UniProt P35372 (whole entry, looked up): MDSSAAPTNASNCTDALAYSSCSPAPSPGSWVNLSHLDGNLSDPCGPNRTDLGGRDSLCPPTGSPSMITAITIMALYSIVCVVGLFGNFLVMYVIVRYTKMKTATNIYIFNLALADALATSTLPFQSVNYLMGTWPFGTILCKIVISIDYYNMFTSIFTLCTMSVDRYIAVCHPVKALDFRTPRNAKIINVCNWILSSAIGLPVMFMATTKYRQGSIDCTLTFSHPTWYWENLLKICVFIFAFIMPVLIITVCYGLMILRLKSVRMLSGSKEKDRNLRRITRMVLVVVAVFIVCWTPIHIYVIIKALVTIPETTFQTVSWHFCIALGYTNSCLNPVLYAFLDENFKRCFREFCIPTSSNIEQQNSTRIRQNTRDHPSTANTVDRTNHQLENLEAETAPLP

N=C(N)NCCC[C@H](NC(=O)[C@H](CC(=O)O)NC(=O)[C@@H]1CSCC(=O)NCC(=O)N[C@@H](Cc2c[nH]cn2)C(=O)N[C@H](Cc2ccccc2)C(=O)N[C@@H](CCCNC(=N)N)C(=O)N[C@H](Cc2c[nH]c3ccccc23)C(=O)N1)C(=O)N[C@@H](Cc1ccccc1)C(=O)NCC(N)=O — EC50 (Melanocortin receptor 3 (MC3R, Homo sapiens, UniProt P41968); cAMP, agonist): > 1000 nM
CCCC[C@H](NC=O)C(=O)N[C@@H](CC(C)C)C(=O)N[C@@H](Cc1ccccc1)C(=O)O — EC50 (FPR1; receptor surface downregulation, agonist; CHO cells; 1 h, 37 °C): 50 ± 7 nM
CC(C)C[C@H](NC(=O)[C@H](C)NC(=O)[C@H](CO)NC(=O)[C@@H]1CCCN1C(=O)[C@@H]1CCCN1C(=O)[C@H](CCC(N)=O)NC(=O)[C@H](CC(C)C)NC(=O)[C@@H](N)[C@@H](C)O)C(=O)N[C@@H](CCCNC(=N)N)C(=O)N[C@@H](CCCNC(=N)N)C(=O)N[C@@H](CCCNC(=N)N)C(=O)N[C@@H](Cc1c[nH]cn1)C(=O)N[C@@H](Cc1ccc(O)cc1)C(=O)N[C@@H](Cc1c[nH]cn1)C(=O)N[C@@H](Cc1c[nH]cn1)C(=O)N[C@@H](C)C(=O)N[C@@H](CC(C)C)C(=O)N1CCC[C@H]1C(=O)N1CCC[C@H]1C(=O)N[C@@H](CO)C(=O)N[C@@H](CCCNC(=N)N)C(=O)O — EC50 (C3AR1; β-arrestin recruitment, agonist): 16900 nM
CSCC[C@H](NC=O)C(=O)N[C@@H](CC(C)C)C(=O)O — EC50 (FPR1; binding, competitor; U-937; 4 °C, added: 5 nM WK(FL)YMVm): ~100 nM and 110 nM
CC(C)C[C@H](NC(=O)[C@@H](N)[C@@H](C)O)C(=O)N[C@@H](CCC(N)=O)C(=O)N1CCC[C@H]1C(=O)N1CCC[C@H]1C(=O)N[C@@H](C)C(=O)N[C@@H](CO)C(=O)N[C@@H](CO)C(=O)N[C@@H](CCCNC(=N)N)C(=O)N[C@@H](CCCNC(=N)N)C(=O)N[C@@H](CCCNC(=N)N)C(=O)N[C@@H](Cc1c[nH]cn1)C(=O)N[C@@H](Cc1ccccc1)C(=O)N[C@@H](Cc1c[nH]cn1)C(=O)N[C@@H](Cc1c[nH]cn1)C(=O)N[C@@H](C)C(=O)N[C@@H](CC(C)C)C(=O)N1CCC[C@H]1C(=O)N1CCC[C@H]1C(=O)N[C@@H](C)C(=O)N[C@@H](CCCNC(=N)N)C(=O)O — EC50 (C3AR1; β-arrestin1 recruitment, agonist, BRET; added: GRK2 co-expression): 191 nM
O=C(CCc1ccc(O)cc1)c1c(O)cc(O)cc1O — EC50 (ESR2; coactivator recruitment, agonist): 25500 nM
O=S(=O)(Oc1ccc(F)cc1)C1CC2OC1C(c1ccc(O)cc1)=C2c1ccc(O)cc1 (racemic) — EC50 (ESR1; reporter gene, agonist, luciferase): 200 nM
CCCn1c(=O)c2[nH]c(-c3ccc(OCC(=O)NCCNS(=O)(=O)c4cccc5c(N(C)C)cccc45)cc3)nc2n(CCC)c1=O — EC50 (ADORA1; reporter gene, agonist): 145 nM
O=C(NCc1ccsc1)N1CCN(C(Cc2cccc(O)c2)c2ccccc2)CC1 (centres unmarked) — EC50 (Mu-type opioid receptor (OPRM1, Homo sapiens, UniProt P35372); β-arrestin recruitment, agonist; U2OS with GRK2): 72 nM
O=C(CN1C(=O)c2ccccc2C1=O)c1ccc(O)cc1O — EC50 (ESR2; coactivator recruitment, agonist): 1560 nM
CCCn1c(=O)c2[nH]c(-c3ccc(OCC(=O)NCCNC(=O)CCCCCNS(=O)(=O)c4ccc(C5=c6cc7c8c(c6Oc6c5cc5c9c6CCCN9CCC5)CCC[N+]=8CCC7)c(S(=O)(=O)[O-])c4)cc3)nc2n(CCC)c1=O — EC50 (ADORA1; reporter gene, agonist): 1510 nM
O=C(Nc1c(-c2cccs2)nc2ccccn12)c1ccc(Cl)cc1 — EC50 (Gamma-aminobutyric acid receptor subunit delta/Gamma-aminobutyric acid receptor subunit beta-2/Gamma-aminobutyric acid receptor subunit alpha-6 (Homo sapiens, UniProt O14764+P47870+Q16445); positive allosteric modulator, FLIPR membrane potential; cells expressing α6β2δ GABA-A receptor): 2020 nM
CSCC[C@H](NC(=O)[C@H](CCCNC(=N)N)NC(=O)[C@H](CCCCN)NC(=O)[C@@H](N)Cc1c[nH]c2ccccc12)C(=O)N[C@H](C(=O)N[C@H](CCSC)C(N)=O)C(C)C — EC50 (FPR1; binding, competitor; U-937; 4 °C, added: 5 nM WK(FL)YMVm): > 6700 nM
Cc1ccc(Oc2nc3cc(-c4ccc5c(ccn5C)c4)c(Cl)cc3[nH]2)cc1C(=O)O — EC50 (PRKAA1/PRKAB1, with gamma1 (Homo sapiens, UniProt Q13131+Q9Y478); enzyme activity, activator, kinase; α1β1γ1 complex, added: SAMS peptide substrate): 30 nM
N#CC(=CC(=O)c1ccccc1)c1ccc(O)cc1 — EC50 (ESR1; coactivator recruitment, agonist): 6740 nM
CSCC[C@H](NC(=O)[C@H](CC(C)C)NC(=O)[C@H](CCC(N)=O)NC(=O)[C@H](Cc1c[nH]c2ccccc12)NC(=O)[C@H](CC(C)C)NC(=O)[C@H](CCCCN)NC(=O)[C@H](Cc1c[nH]cn1)NC(=O)[C@H](CO)NC(=O)[C@H](CC(C)C)NC(=O)[C@H](CC(N)=O)NC(=O)[C@H](CCC(N)=O)NC(=O)[C@@H](NC(=O)[C@H](CCC(N)=O)NC(=O)[C@@H]1CSSC[C@H](NC(=O)CNC(=O)[C@@H](N)C(C)C)C(=O)N[C@@H](C(C)C)C(=O)N[C@@H](CC(C)C)C(=O)NCC(=O)N[C@@H]([C@@H](C)O)C(=O)N1)C(C)C)C(=O)NCC(=O)N1CCC[C@H]1C(=O)N[C@@H](C)C(=O)NCC(=O)N[C@@H](CCCCN)C(=O)N[C@@H](CCC(N)=O)C(=O)N[C@@H](CC(=O)O)C(=O)N[C@@H](CO)C(=O)N[C@@H](C)C(=O)N1CCC[C@H]1C(=O)N[C@H](C(=O)N[C@@H](CC(=O)O)C(=O)N1CCC[C@H]1C(=O)N[C@@H](CO)C(=O)N[C@@H](CO)C(=O)N1CCC[C@H]1C(=O)N[C@@H](Cc1c[nH]cn1)C(=O)N[C@@H](CO)C(=O)N[C@@H](Cc1ccc(O)cc1)C(N)=O)C(C)C — EC50 (Calcitonin-gene-related peptide receptor, CALCRL/RAMP1 (Homo sapiens, UniProt O60894+Q16602); cAMP, agonist, CAMYEL BRET; COS-7; 37 °C): 6.03 nM
N#Cc1c(N)nc(SCc2ncc[nH]2)c(C#N)c1-c1ccc(O)cc1 — EC50 (Adenosine receptor A2a (ADORA2A, Homo sapiens, UniProt P29274)): 10 nM
N=C(N)NCCC[C@H](NC(=O)[C@H](Cc1ccccc1)NC(=O)[C@@H](N)CO)C(=O)N[C@@H](CC(N)=O)C(=O)NCC(N)=O — EC50 (Neuropeptide S receptor (Mus musculus, UniProt Q8BZP8); cAMP, agonist, TR-FRET): > 10000 nM
COc1cccc(Cc2cc(CCC(=O)NCCNc3cccc4c(S(=O)(=O)O)cccc34)nn(CC(=O)Nc3ccc(Br)cc3)c2=O)c1 — EC50 (FPR1; calcium mobilization, agonist; HL-60 transfected with target): 10 ± 5 nM
CCNC(=O)[C@H]1O[C@@H](n2cnc3c(NCCCCCNC(=O)CCCCCNC(=O)COc4ccc(/C=C/C5=[N+]6C(=Cc7ccc(-c8cccs8)n7[B-]6(F)F)C=C5)cc4)ncnc32)[C@H](O)[C@@H]1O — EC50 (ADORA1; CRE-SPAP reporter gene, agonist; CHO-A1; Gs enhancement, added: forskolin, pertussis toxin 100 ng/mL overnight): 263 nM

Repeated from above:
CC(C)C[C@H](NC(=O)[C@H](C)NC(=O)[C@H](CO)NC(=O)[C@@H]1CCCN1C(=O)[C@@H]1CCCN1C(=O)[C@H](CCC(N)=O)NC(=O)[C@H](CC(C)C)NC(=O)[C@@H](N)[C@@H](C)O)C(=O)N[C@@H](CCCNC(=N)N)C(=O)N[C@@H](CCCNC(=N)N)C(=O)N[C@@H](CCCNC(=N)N)C(=O)N[C@@H](Cc1c[nH]cn1)C(=O)N[C@@H](Cc1ccc(O)cc1)C(=O)N[C@@H](Cc1c[nH]cn1)C(=O)N[C@@H](Cc1c[nH]cn1)C(=O)N[C@@H](C)C(=O)N[C@@H](CC(C)C)C(=O)N1CCC[C@H]1C(=O)N1CCC[C@H]1C(=O)N[C@@H](CO)C(=O)N[C@@H](CCCNC(=N)N)C(=O)O — EC50 (C3AR1; β-arrestin recruitment, agonist): 16900 nM
CSCC[C@H](NC=O)C(=O)N[C@@H](CC(C)C)C(=O)O — EC50 (FPR1; binding, competitor; U-937; 4 °C, added: 5 nM WK(FL)YMVm): ~100 nM and 110 nM
